Assay results gathered from unrelated publications.
Lines come from different studies, so protocols differ. “And” joins repeats or separate records; there may be more than shown. ± marks the error that the study gave.
ampC: Beta-lactamase (ampC, Escherichia coli K-12, UniProt P00811)
Sequence of UniProt P00811 (whole entry, looked up): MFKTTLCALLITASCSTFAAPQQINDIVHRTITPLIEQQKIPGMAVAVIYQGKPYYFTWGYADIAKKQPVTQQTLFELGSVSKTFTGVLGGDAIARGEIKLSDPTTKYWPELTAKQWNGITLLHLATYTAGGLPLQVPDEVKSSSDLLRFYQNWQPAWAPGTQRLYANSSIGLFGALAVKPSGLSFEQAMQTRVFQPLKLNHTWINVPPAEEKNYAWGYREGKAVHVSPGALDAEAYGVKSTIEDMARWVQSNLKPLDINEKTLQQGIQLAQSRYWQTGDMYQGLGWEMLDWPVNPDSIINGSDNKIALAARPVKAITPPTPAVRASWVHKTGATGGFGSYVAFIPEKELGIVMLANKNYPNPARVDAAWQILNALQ
ache: Acetylcholinesterase (ache, Electrophorus electricus, UniProt O42275)
Sequence of UniProt O42275 (whole entry, looked up): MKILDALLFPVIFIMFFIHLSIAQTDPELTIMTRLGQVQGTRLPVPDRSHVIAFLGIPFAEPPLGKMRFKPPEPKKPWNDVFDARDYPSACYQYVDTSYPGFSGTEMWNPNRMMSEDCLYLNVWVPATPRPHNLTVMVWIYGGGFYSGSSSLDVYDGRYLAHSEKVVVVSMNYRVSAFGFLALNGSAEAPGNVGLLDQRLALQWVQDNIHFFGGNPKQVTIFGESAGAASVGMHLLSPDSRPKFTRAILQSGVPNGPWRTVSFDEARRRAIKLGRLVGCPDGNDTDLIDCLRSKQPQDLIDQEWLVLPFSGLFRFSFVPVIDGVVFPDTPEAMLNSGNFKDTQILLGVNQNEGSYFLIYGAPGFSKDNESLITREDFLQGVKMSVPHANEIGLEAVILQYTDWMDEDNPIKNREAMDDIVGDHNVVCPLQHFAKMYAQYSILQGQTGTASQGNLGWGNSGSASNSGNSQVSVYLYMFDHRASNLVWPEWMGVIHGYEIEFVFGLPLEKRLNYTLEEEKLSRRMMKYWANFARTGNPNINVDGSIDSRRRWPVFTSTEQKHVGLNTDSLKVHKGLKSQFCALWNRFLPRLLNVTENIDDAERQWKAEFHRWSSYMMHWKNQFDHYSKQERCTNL
dcp2 with Dcp1: mRNA decapping complex subunit 2, with Dcp1 (dcp2, Schizosaccharomyces pombe, UniProt O13828)
Sequence of UniProt O13828 (whole entry, looked up): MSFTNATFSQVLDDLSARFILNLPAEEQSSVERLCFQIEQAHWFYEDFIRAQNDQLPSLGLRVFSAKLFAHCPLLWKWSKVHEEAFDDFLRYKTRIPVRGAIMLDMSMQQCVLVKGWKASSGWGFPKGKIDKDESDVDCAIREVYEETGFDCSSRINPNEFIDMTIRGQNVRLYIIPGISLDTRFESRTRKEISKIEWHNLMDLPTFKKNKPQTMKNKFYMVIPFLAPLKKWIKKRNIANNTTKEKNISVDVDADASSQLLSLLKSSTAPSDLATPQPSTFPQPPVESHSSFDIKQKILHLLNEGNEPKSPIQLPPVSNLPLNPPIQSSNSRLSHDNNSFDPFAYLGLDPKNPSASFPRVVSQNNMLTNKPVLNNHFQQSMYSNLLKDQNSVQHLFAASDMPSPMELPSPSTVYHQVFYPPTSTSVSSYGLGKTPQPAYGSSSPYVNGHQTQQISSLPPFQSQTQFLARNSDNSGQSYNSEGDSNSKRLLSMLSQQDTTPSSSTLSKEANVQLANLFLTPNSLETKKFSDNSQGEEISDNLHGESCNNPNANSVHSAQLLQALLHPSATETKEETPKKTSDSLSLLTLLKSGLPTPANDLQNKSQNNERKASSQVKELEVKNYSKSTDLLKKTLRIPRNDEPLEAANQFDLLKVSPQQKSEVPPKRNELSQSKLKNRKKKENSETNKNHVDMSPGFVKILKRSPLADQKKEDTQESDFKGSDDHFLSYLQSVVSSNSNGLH
Sequence of UniProt Q9BTU6 (whole entry, looked up): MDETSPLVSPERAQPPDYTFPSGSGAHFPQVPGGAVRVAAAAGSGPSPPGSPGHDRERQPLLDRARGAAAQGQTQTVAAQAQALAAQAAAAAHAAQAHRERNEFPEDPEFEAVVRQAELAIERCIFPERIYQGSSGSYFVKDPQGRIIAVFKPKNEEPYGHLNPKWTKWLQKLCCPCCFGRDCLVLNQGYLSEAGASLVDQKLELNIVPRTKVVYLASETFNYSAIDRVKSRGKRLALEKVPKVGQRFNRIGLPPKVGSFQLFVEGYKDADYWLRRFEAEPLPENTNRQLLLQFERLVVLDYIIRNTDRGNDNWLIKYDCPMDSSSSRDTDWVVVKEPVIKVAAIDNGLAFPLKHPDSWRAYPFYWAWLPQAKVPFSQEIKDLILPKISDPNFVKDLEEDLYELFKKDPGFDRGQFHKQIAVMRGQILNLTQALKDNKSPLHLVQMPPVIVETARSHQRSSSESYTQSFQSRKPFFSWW
Sequence of UniProt Q9EP73 (whole entry, looked up): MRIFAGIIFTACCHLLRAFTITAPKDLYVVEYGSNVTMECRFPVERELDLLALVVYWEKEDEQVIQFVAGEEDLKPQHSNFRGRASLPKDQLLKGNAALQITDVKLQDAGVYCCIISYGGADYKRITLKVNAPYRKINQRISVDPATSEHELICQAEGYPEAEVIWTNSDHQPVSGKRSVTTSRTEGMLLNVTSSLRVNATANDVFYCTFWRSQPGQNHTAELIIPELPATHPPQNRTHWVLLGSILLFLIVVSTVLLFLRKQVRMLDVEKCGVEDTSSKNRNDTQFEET
Sequence of UniProt P08922 (whole entry, looked up): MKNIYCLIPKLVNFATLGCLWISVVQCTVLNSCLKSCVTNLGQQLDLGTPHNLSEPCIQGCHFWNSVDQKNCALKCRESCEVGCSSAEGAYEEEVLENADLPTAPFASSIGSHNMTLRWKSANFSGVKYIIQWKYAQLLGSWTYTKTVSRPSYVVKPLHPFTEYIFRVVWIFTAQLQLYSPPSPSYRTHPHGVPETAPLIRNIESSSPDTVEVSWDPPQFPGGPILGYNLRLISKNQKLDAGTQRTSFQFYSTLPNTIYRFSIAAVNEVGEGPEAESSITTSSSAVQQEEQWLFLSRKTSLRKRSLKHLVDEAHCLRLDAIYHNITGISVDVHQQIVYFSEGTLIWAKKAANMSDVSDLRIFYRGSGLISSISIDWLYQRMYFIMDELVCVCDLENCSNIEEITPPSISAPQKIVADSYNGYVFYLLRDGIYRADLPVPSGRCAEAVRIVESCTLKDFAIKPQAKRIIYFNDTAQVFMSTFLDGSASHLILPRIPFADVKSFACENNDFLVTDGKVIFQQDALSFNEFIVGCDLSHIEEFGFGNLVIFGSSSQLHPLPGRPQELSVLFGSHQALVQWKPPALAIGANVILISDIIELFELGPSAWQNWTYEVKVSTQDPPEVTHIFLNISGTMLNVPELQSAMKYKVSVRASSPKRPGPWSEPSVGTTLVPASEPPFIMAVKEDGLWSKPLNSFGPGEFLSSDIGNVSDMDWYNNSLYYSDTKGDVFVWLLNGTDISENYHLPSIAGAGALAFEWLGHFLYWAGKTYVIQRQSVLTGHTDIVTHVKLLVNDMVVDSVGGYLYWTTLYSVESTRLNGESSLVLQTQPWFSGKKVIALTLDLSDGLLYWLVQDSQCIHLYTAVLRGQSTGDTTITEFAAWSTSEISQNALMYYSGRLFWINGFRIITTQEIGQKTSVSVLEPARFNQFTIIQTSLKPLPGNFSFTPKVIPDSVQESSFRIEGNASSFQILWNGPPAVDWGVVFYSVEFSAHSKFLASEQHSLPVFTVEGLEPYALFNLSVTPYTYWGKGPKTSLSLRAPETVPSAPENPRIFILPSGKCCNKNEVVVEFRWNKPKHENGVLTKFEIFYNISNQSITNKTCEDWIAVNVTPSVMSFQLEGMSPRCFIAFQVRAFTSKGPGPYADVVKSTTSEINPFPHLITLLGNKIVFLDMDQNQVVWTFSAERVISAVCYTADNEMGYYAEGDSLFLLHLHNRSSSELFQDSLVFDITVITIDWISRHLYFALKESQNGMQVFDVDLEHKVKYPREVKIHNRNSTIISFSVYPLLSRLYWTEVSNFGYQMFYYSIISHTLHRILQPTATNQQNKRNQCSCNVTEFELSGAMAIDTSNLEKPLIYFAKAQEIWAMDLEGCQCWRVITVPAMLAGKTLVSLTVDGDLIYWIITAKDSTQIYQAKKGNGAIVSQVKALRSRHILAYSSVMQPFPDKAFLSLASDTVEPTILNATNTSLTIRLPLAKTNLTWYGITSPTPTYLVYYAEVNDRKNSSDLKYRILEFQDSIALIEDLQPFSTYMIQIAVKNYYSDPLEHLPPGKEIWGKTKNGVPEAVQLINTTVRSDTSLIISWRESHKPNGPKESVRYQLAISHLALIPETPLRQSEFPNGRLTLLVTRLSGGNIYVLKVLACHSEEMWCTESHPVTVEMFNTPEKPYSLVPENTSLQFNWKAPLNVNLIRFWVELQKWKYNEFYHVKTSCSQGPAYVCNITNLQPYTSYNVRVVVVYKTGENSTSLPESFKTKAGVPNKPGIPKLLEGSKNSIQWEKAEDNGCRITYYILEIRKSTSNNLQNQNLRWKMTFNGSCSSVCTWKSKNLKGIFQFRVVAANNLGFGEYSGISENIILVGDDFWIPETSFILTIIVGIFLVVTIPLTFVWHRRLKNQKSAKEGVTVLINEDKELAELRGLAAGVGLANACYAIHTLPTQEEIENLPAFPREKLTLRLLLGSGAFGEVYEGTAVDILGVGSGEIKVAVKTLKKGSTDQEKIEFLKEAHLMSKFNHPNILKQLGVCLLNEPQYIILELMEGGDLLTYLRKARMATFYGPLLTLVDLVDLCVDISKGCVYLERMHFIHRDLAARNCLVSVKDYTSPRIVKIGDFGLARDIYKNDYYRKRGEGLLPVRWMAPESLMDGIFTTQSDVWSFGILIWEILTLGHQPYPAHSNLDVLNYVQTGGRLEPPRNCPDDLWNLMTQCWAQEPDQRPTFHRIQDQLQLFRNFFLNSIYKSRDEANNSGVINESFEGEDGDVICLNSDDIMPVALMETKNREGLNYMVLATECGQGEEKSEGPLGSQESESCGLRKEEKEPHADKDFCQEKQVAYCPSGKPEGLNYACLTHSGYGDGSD

| SMILES | target or system | test | system | conditions | scale | measurement | result |
| --- | --- | --- | --- | --- | --- | --- | --- |
| CCOC(=O)[C@](CC)(CCCSCCOCCOCCNC(=O)c1ccc(-c2c3ccc(=N)c(S(=O)(=O)O)c-3oc3c(S(=O)(=O)O)c(N)ccc23)c(C(=O)O)c1)NC(=O)c1ccc(C2CC2)c(Cc2ccc(F)cc2)n1 | CHRNA1/CHRNG/CHRND (Homo sapiens, UniProt P02708+P07510+Q07001) | specific binding, antagonist radioligand binding |  | 10 µM |  | inhibition | 14% |
| OB(O)c1cnn(-c2cccc(Cl)c2)c1 | ampC | enzyme activity, CENTA hydrolysis |  | 1 µM |  | inhibition | 73% |
| CCc1cccc(CC)c1-n1cc(CCS(=O)(=O)F)nn1 | ache |  |  | 20 µM |  | inhibition | 5.3 ± 0.7% |
| COc1ccc(F)cc1S(=O)(=O)Nc1cnc2c(c1)C(=O)NCCO2 | ADRA1D (Homo sapiens, UniProt P25100) | ligand displacement, radioligand |  | 10 µM |  | inhibition | 3% |
| Cc1ccc(OCCN(C)C)cc1C(=O)N[C@H](C)c1cc(-c2cnn(CC(C)(C)O)c2)nc2ccccc12 | Vero E6 |  |  | 3.906 µM |  | viability | 104% and 111% |
| CS(C)(=O)=Nc1ccc(-c2ccc(-c3nc4cc(O[C@@H]5CO[C@H]6[C@@H]5OC[C@H]6O)[nH]c4cc3F)cc2)cc1 | Oprk1 (Rattus norvegicus, UniProt P34975) | calcium signal, antagonist |  | 10 µM |  | inhibition | 19% |
| CCCCN(C=O)c1c(CC)nc2ccc(C(=O)N(C)Cc3ccco3)cn12 | ache | enzyme activity, inhibitor, Ellman |  | 5 µM |  | inhibition | 65% |
| O=C1NC(=O)c2c1c1cc(F)c[n+]3c1c1c2c2cc(O)ccc2[n]1[Ru-4]312([N]=C=S)[S+]3CC[S+]1CC[S+]2CC3 (stereo not shown) | FGR (Homo sapiens, UniProt P09769) | enzyme activity |  | 100 nM, human enzyme, added: 10 µM ATP | relative to: untreated | remaining activity | 49% |
| COc1ccccc1-c1n[nH]c2nc(NC3CCN(C(=O)Cc4ccc(F)cc4F)CC3)ncc12 |  | bead binding, competition bead pull-down, item: LMJF.21.1860 | Leishmania donovani axenic amastigote extract | 10 µM | relative to: vehicle | relative abundance | 0.9 |
| N#Cc1ccc(N2N=C3c4ccc(C(=O)O)cc4CCC3C2C2CCCC2)cc1Cl (stereo not shown) | CARM1 (Homo sapiens, UniProt Q86X55) | enzyme activity, inhibitor |  | 10 µM |  | inhibition | 2% |
| C[n+]1cn([C@@H]2O[C@H](COP(=O)([S-])OP(=O)(O)OP(=O)(O)OP(=O)([S-])OC[C@H]3O[C@@H](n4c[n+](C)c5c(O)nc(N)nc54)[C@H](O)[C@@H]3O)[C@@H](O)[C@H]2O)c2nc(N)nc(O)c21 (mixture of isomers) | dcp2 with Dcp1 |  |  | 200 µM, 0.5 h |  | inhibition | 48.2 ± 22.1% |
| CC[C@H](C)[C@H](NC(=O)[C@H](CO)NC(=O)[C@H](Cc1ccc(O)cc1)NC(=O)[C@H](Cc1ccc(O)cc1)NC(=O)[C@H](CC(N)=O)NC(=O)CNC(=O)[C@H](CO)NC(=O)[C@H](Cc1ccc(O)cc1)NC(=O)[C@H](CO)NC(=O)[C@H](CO)NC(=O)[C@H](CC(N)=O)NC(=O)COCCOCCNC(=O)CN1CCN(CC(=O)O)CCN(CC(=O)O)CCN(CC(=O)O)CC1)C(=O)N[C@@H](CC(C)C)C(N)=O [copper-64 labelled] |  | dynamic PET | tamoxifen-induced PDAC mouse model, metastases | 1.1 min, CLDN4-expressing tumours |  | maximum metastasis uptake | 25 %IA/cc |
| O=C1NC2(CC2)COc2ncc(F)cc2[C@H]2COCCN2c2ccn3ncc1c3n2 |  |  | Sprague-Dawley rat, female, thymus | oral, 5 mg/kg/day, 4 weeks, end of treatment |  | organ-to-brain weight ratio | 31.1 ± 8.4% |
| CN(C)[C@H]1C[C@@]23CC[C@@]4(O2)C(=CC[C@]2(C)[C@@H](c5ccc6ccncc6c5)CC[C@H]24)C=C3[C@@H](O)[C@@H]1O | PI4K2A (Homo sapiens, UniProt Q9BTU6) | ATP probe labelling, inhibitor, KiNativ profiling |  | 1 µM |  | inhibition | 9.6% |
| CCCCCCCCCCCCCCCCCC(=O)NC[C@H]1CC[C@H](C(=O)N[C@@H](CCC(=O)NCCCOCCOCCOCCCNC(=O)COCC(=O)N[C@@H](Cc2ccc(O)cc2)C(=O)NC(C)(Cc2ccccc2)C(=O)N[C@@H](CC(C)C)C(=O)N[C@@H](CCCC)C(=O)N[C@@H](CCCNC(=N)N)C(=O)N2CCC[C@H]2C(=O)N[C@@H](CCCNC(=N)NC)C(=O)N[C@@H](CC(N)=O)C(N)=O)C(=O)O)CC1 (stereo partly shown) | FSHR (Homo sapiens, UniProt P23945) | antagonist, DiscoverX GPCR panel |  | 1 µM |  | inhibition | 57% |
| Cc1sc2c(c1C)C(c1ccc(Cl)cc1)=NC(CC(=O)OC(C)(C)C)c1nnc(C)n1-2 (stereo not shown) | HTR7 (Homo sapiens, UniProt P34969) | ligand displacement, radioligand |  | 1 µM |  | inhibition | -12% |
| O=C(O)c1ccccc1/C=N/Nc1nc(-c2ccccc2Cl)cs1 | ROS1 (Homo sapiens, UniProt P08922) | enzyme activity, inhibitor |  | 1 µM |  | inhibition | 3.98% |
| O=C(CN1CN(c2ccccc2)C2(CCN(C(=O)c3cnc4[nH]ncc4c3)CC2)C1=O)NCC(F)(F)F | SIK3 (Homo sapiens, UniProt Q9Y2K2) | inhibitor |  | concentration not given |  | inhibition | < 50% |
| CCc1nnc(-c2c(OC)cc(-c3cnc4cc(-c5cnn(C)c5)ccn34)cc2OC)o1 | DRD1 (Homo sapiens, UniProt P21728) | antagonist radioligand, radioligand binding |  | 10 µM, SafetyScreen44 D1 |  | inhibition | 7% |

| SMILES | target or system | test | system | conditions | scale | measurement | result |
| --- | --- | --- | --- | --- | --- | --- | --- |
| Cc1ccc(OCCN(C)C)cc1C(=O)N[C@H](C)c1cc(-c2cnn(CC(=O)N(C)C)c2)nc2ccccc12 | African green monkey cells |  |  | 7.812 µM |  | viability | 86.5% |
| CC(C)[C@H]1NC(=O)C[C@H]2/C=C/CCSSC[C@@H](NC1=O)C(=O)N[C@H](Cc1cccc3ccccc13)C(=O)NCC(=O)O2 | MARK4 (Homo sapiens, UniProt Q96L34) | enzyme activity, inhibitor |  | 10 µM |  | inhibition | -0.268% |
| C=CC(=O)Nc1cc(-c2nn(C3CCC(N4CCN(C(C)=O)CC4)CC3)c3ncnc(N)c23)ccc1Oc1ccccc1 (stereo not shown) | VRK2 (Homo sapiens, UniProt Q86Y07) | inhibitor, KiNativ profiling | biochemical | 2 µM |  | inhibition | 13.6% |
| O=C(O)CCn1c(=O)oc2cc(Cl)c(Cl)cc21 | IDO1 (Homo sapiens, UniProt P14902) |  |  | 100 µM |  | inhibition | 6.7% |
| CC(C)(C)C(=O)OCOP(=O)(OCOC(=O)C(C)(C)C)C1CCCN(O)C1=O (stereo not shown) | COLO 205 |  |  |  |  | GI50 | 600 nM |
| Cc1ccc2c(n1)c(-c1cccc(S(C)(=O)=O)c1)c(C)n2C/C(F)=C/CN | Estrogen receptor (ESR1, Homo sapiens, UniProt P03372) | ligand displacement, radioligand |  | 10 µM |  | inhibition | -9% |
| COc1ccc2[nH]cc(CCN)c2c1 | ache | enzyme activity, inhibitor, Ellman |  | 20 µM |  | inhibition | 41.4% |
| N[C@H](C(=O)N1CCCC1)C1CCN(c2nccc3c(-c4ncc(Cl)cc4Cl)cccc23)CC1 | SRC (Homo sapiens, UniProt P12931) | enzyme activity, inhibitor |  | 10 µM |  | inhibition | 4% |
| Cc1cc(C(=O)Nc2nc3cccc(C)c3n2[C@H]2CCCCN(C(=O)/C=C/CN(C)C)C2)ccn1 | Trypanosoma brucei brucei |  | 2T1 parental | 5 x EC50, 48 h | relative to: time 0 h | cell growth | 50% and 40% and 37.3% |
| C[C@H](NCc1ccc(-c2ccc(C(F)(F)F)cc2)cc1)C(N)=O | kainate receptor, rat | binding, radioligand binding | biochemical | 1 µM, added: [3H]kainic acid 5.0 nM |  | inhibition | -1% |
| COc1cc([N+](=O)[O-])ccc1-n1cc(CCS(=O)(=O)F)nn1 | ache |  |  | 20 µM |  | inhibition | 41.6 ± 3% |
| O=C(Nc1ccccc1SSc1ccccc1NC(=O)c1ccccc1)c1ccccc1 | Programmed cell death 1 ligand 1, with PD-1 (Cd274, Mus musculus, UniProt Q9EP73) | PD-1/PD-L1 binding, inhibitor, ELISA |  | concentration not given |  | inhibition | inhibited |
| CC(=O)NC[C@@H]1[C@@H](O)C[C@H]2[C@H](O)C[C@@H](CO)N12 | human placental β-N-acetylglucosaminidase |  |  | 0.342 µM, run 1, added: p-nitrophenyl GlcNAc |  | inhibition | 81.6% |
| CN(/N=C/c1ccccc1C(=O)O)c1nc(-c2ccccc2Cl)cs1 | TGFBR1 (Homo sapiens, UniProt P36897) | enzyme activity, inhibitor |  | 1 µM |  | inhibition | -8.98% |
| C[n+]1cn([C@@H]2O[C@H](COP(=O)(O)OP(=O)([O-])OP(=O)(O)O)[C@@H](O)[C@H]2O)c2nc(N)nc(O)c21 | dcp2 with Dcp1 |  |  | 200 µM, 0.25 h |  | inhibition | 0.8% |
| CN[C@@H]1[C@H](O)[C@H](NC)[C@H]2O[C@]3(O)[C@H](O[C@@H]2[C@H]1O)O[C@H](C)C[C@H]3NC(=O)Cc1ccc(Cl)cn1 | SIGMAR1 (Homo sapiens, UniProt Q99720) | ligand displacement, radioligand |  | 10 µM |  | inhibition | -2% |
| Cc1cccc(OC(C)C(=O)Nc2nc(-c3ccccc3)n[nH]2)c1 (stereo not shown) | ampC | enzyme activity, inhibitor |  | up to 10 µM, colloidal aggregation counterscreen, added: 0.1% DMSO |  | inhibition | no inhibition |
| O=C(NC1CCN(c2ncnc3[nH]cnc23)CC1)c1cccc(NS(=O)(=O)c2ccc(C(F)(F)F)cc2)c1 | RNMT (Homo sapiens, UniProt O43148) | enzyme activity, inhibitor |  | 12.5 µM |  | inhibition | 3.51% |

Excerpt of the above:
| SMILES | target or system | test | system | conditions | scale | measurement | result |
| --- | --- | --- | --- | --- | --- | --- | --- |
| Cc1ccc2c(n1)c(-c1cccc(S(C)(=O)=O)c1)c(C)n2C/C(F)=C/CN | Estrogen receptor (ESR1, Homo sapiens, UniProt P03372) | ligand displacement, radioligand |  | 10 µM |  | inhibition | -9% |
| COc1ccc2[nH]cc(CCN)c2c1 | ache | enzyme activity, inhibitor, Ellman |  | 20 µM |  | inhibition | 41.4% |
| N[C@H](C(=O)N1CCCC1)C1CCN(c2nccc3c(-c4ncc(Cl)cc4Cl)cccc23)CC1 | SRC (Homo sapiens, UniProt P12931) | enzyme activity, inhibitor |  | 10 µM |  | inhibition | 4% |
